Measurements pooled from the literature.
A part holds a random share of what one study measured. Positions count from the first letter of the parent shown.

Set 1 — technique: DNA-protein interaction ELISA; form: double-stranded DNA, one strand shown; medium: in vitro, bacterial lysate; concentration: not given; notes: whole dsDNA probe, crude lysate protein; relative to: highest signal in screen; direction: higher = stronger binding; endpoint: relative absorbance
Target: Probable WRKY transcription factor 33, N-terminal DNA-binding domain (WRKY33, Arabidopsis thaliana, UniProt Q8S8P5, residues 169-264)
Target sequence (chain): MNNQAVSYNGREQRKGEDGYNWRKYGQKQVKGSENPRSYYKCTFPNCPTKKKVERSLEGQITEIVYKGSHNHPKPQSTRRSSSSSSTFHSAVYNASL
AAAAAATTACTCCTAGCCCTCATTCAAAAA: 21.4 % of maximum
AAAAAAACTCACGGCGTCACTATGGTAAAA: 17.7 % of maximum
AAAAAAACCGCGTCGCGGCCCGGGAAAA: 20.7 % of maximum
AAAAAATATATTTTCAGCTTTAATCTAAAA: 29.4 % of maximum
AAAAAAGTGCGTTCACGCTTGTATCTAAAA: 25.2 % of maximum
AAAAAAGGGTTTGTCGGGAATTGCCGAAAA: 20.3 % of maximum
AAAAAACCGTCTTATCTCTCGTCCCTAAAA: 18.6 % of maximum
AAAAAATAATATCGATACTCATGCCCAAAA: 20.4 % of maximum
AAAAAACTGCTAATCGGTGACCCGATAAAA: 21.6 % of maximum
AAAAAATATCGGGCACGGTCTTGTCTAAAA: 25.8 % of maximum
AAAAAAATCTTTGCGTCGAGATTCTTAAAA: 24.6 % of maximum
AAAAAATGGGGCTCTGGCCCACCGTAAAAA: 19.7 % of maximum
AAAAAAATTCGCAACCCTCACGTTCGAAAA: 22.6 % of maximum
AAAAAATGCCCATGTGCACCCGTACGAAAA: 18.5 % of maximum
AAAAAATGCAACGCTCCTTTCCCGCTAAAA: 20.5 % of maximum
AAAAAAAAATCGAATTTGGACTTCCGAAAA: 19.5 % of maximum

Set 2 — technique: universal PBM; form: double-stranded DNA, one strand shown; medium: in vitro; concentration: 600 nM; direction: higher = stronger binding; endpoint: E-score
Target: Sal-like protein 4, full length isoform A (SALL4, Homo sapiens, UniProt Q9UJQ4, residues 1-1053)
Sequence of UniProt Q9UJQ4 (whole entry, looked up): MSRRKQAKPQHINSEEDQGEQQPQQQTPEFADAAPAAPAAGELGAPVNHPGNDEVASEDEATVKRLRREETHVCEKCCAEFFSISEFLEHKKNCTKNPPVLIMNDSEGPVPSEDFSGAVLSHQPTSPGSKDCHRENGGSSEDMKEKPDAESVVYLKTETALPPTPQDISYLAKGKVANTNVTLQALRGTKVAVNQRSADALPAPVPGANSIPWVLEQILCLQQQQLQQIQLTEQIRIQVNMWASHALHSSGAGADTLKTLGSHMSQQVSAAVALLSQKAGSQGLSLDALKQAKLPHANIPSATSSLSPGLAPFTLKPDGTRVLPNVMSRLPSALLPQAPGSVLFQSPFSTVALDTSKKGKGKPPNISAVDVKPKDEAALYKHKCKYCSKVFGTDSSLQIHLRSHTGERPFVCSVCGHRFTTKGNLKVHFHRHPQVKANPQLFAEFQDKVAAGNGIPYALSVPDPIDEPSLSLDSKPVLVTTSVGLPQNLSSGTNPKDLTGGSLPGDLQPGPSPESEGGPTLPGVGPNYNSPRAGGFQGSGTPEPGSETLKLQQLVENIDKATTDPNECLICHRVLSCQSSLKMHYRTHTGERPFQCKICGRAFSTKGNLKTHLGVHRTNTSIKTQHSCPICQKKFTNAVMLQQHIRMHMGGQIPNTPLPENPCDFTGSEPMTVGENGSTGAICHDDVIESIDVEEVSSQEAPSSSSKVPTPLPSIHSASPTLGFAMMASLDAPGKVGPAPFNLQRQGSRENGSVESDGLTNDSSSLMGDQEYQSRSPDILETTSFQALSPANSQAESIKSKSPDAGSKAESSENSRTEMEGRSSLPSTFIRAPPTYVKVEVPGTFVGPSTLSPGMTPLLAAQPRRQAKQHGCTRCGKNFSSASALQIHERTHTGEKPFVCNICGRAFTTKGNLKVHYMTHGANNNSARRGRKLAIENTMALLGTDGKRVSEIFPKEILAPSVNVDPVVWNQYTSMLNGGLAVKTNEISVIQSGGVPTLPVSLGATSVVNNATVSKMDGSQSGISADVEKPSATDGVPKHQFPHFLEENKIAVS
Notes: 8-mer, flanks averaged, mean of replicates
AGCGAAGG: -0.172
ACGGGGAC: -0.335
ACCGTTGC: -0.279
CTCCGCGA: -0.273
ATCGGGAA: -0.183
CGACGTGC: -0.167
AACGAAGT: 0.191
ACTTAAGT: 0.0638
GCGGCTAA: -0.0727
AATTTACA: 0.33
CCGGCCCA: -0.409
AGTCTCAA: -0.00785
CCGGATTA: -0.092
AACATGTT: 0.19
GCATTGAC: 0.102
ATACTAAA: 0.261
GACTGTCA: -0.0708
CGCGAGGC: -0.23
GGACCCGA: -0.275
AGAAAATG: 0.133
CACGTACA: 0.0264
CTCGCGCC: -0.342
TCATTACA: 0.29
AAGTGTAA: 0.125
AAAGGGAG: -0.131

Set 3 — technique: DHFR PCA, deep sequencing; medium: yeast; with: (+)-ABA 0.0091 µM; relative to: wild-type fitted maximum; direction: higher = stronger binding; endpoint: relative binding score
Target: ABI1, truncated, D143A, DHFR fusion (Arabidopsis thaliana)
Notes: methotrexate growth selection, single substitutions
Starting sequence: PYL1, truncated, DHFR fusion (Arabidopsis thaliana); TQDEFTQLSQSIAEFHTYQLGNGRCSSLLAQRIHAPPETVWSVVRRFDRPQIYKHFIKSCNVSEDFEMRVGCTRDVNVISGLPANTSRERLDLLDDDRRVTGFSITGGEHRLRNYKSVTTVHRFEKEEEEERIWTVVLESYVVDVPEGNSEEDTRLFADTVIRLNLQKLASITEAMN
I172E: -1.66%
V145W: -6.53%
F56V: -1.89%
V40D: -1.92%
G107M: -0.158%
G21R: 21.5%
E130F: 5.97%
D92N: 14.3%
R132G: 62.2%
G148P: 0.761%
E152R: 1.69%
C72M: 23.3%
A30T: 7.02%
L29S: -0.934%
E38A: 7.26%
F56G: 2.88%
T39R: 17.4%
S9A: 34.6%
A158L: 54.8%
V136T: -4.12%
E130A: 30.7%
Y18L: -0.103%
L166W: 0.24%
G23S: 6.69%
T101I: 87.2%

Set 4 — technique: protein-binding microarray; form: double-stranded DNA, one strand shown; medium: in vitro; concentration: 250 nM; notes: 60-bp whole probe; with: salmon DNA 0.4 mg/ml; relative to: random background probes; direction: higher = stronger binding; endpoint: log fluorescence; shared flanks, not repeated: GCCTAGCAC … GTCTTGATTCGCTTGACGCTGCTG
Target: Interferon regulatory factor 7, full length, phosphomimetic (IRF7, Homo sapiens, UniProt Q92985, residues 1-503, S101K/S471D/S472D/S475D/S476D/S477D/S483D/S484D/S487D)
Sequence of UniProt Q92985 (whole entry, unmodified, looked up): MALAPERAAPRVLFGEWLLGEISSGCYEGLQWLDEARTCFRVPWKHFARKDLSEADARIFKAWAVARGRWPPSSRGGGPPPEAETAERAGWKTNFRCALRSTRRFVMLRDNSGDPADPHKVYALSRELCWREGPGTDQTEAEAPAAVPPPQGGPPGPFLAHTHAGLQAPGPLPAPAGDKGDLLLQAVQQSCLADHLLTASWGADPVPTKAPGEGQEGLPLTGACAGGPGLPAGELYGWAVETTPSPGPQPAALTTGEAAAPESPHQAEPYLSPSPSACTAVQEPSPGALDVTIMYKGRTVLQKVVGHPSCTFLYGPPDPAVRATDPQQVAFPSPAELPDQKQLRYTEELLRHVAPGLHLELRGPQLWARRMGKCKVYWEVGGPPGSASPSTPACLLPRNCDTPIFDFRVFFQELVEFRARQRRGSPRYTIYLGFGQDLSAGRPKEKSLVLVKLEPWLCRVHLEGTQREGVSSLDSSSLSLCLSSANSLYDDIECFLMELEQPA
TTAGATTTCAGTTCCGAATAGTGCTAG: 1.15 z-score
TTAGATCTCAGACTGGAATAGTGCTAG: 0.26 z-score
TTAGGTTTCGACTTTCGGTCAGTGCTA: 10.2 z-score
TCATATATAATATATATTACTGTGCTA: 0.536 z-score
GAATCTCTCATGTTACATTTGTGCTAG: 0.921 z-score
TCAAATCCCCTTCTACTACTGTGCTAG: 0.566 z-score
GACGGCTTCGGTTTCGGGACGTGCTAG: 4.01 z-score
TTCGGTATCGGTTTCGGTTAGTGCTAG: 10 z-score
TTAGAACTGAGGATCGATTAGTGCTAG: 0.0845 z-score
GACGGTATCCTTCTCCTTACGTGCTAG: 0.184 z-score
TTAAGTTTCCTTTTCCTTTAGTGCTAG: 8.22 z-score
GACGGTTTCGGACTGAGGACGTGCTAG: 4.41 z-score
GACGAACTGGGGGATCGAGACGTGCTA: 0.153 z-score
TTAGGACTGCTTTTCCTTGAGTGCTAG: 0.706 z-score
TTAGGTATCCTTCTCGTTTAGTGCTAG: 0.997 z-score
TTAGGTTTCGGTTATCGGTTAGTGCTA: 10.9 z-score
GACGGTTTCGACTCTGGGGACGTGCTA: 7.68 z-score
TGGCCTCTAGGTTTTCTGAAGTGCTAG: -0.258 z-score
GACGGTATCGGTCTCGCGACGTGCTAG: 0.33 z-score

Set 5 — technique: RNA Bind-n-Seq; form: RNA; medium: in vitro; concentration: 365 nM; relative to: no-protein control; direction: higher = stronger binding; endpoint: RBNS enrichment (R)
Target: RNA binding protein fox-1 homolog 2, RRM domain, GST-SBP tag (RBFOX2, Homo sapiens, UniProt O43251-10, residues 100-194)
Notes: natural RNA segment, single round, ends assumed
Shared flanks, not repeated: GGGAGUUCUACAGUCCGACGAUC … UGGAAUUCUCGGGUGCCAA
Target sequence (chain): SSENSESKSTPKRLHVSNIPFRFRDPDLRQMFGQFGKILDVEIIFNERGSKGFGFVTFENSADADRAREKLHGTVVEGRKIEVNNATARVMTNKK
UAGUGCCGUUGGUUUCACAUGAUUGCACUUUUGUGGGUCACAAGUGAUACAUACGUGUAUUACUCGAUCACUGGAUGUGGAAGUACCCAUUCAUCACAUCUGCCUCAUAG: 0.287
CCCAGGAACUGUUCAGAAAUCUCAGAAGAAAUCUGCUUCUCUUCGAUGGAAAGAUAUAAUUAACGAUCAAAGAGCUCUAAGAAAAUUGCAAAGAAGCCUUAAUGUUCAAG: 0.779
AGGUCCUGAGUUCAGUUCCCAGCAACCACAUGGUGGCUCACACCACCUGUAAUGGGCUCUGACGCCCUCUUCUGAUGUGUGUCUGAAGACAGCUGCAGUGGACUCAUAAG: 0.247
UGGGAUUCUGUGUGUCCUCUGUGCUAGUAGUCCAGGACAGGAAUGUAAAGUCAGAAUGCGGGGCCAGGAGGGCCUCUUCCUCCCUCUUCCCUCCCAAGAAACCAGGUUGG: 2.68
UGUACCCACGUGCCCAUGUAUAUGUUUGUGUGUGUGUAUGUGUGAGUGUGUGUGUAUGUGUGUGUGUAUGUAAGUCCCCUGUGUGGGUCCAGUUUCAAGGCAUGUACAAU: 5.79
ACCUUUUGAUUAGCUGUUGAGGAUUACCCACUGUCUUAGGAAGACCUAUUUUAACCUUACGUGUUCAAUGUGGUGAAUGGUUUGGGCCUUCACAAAUUAGGGGGGGGGCG: 0.824
CAUCCUCCUCACAUGAAUGUCAACCCACAACAACCAGCAUAGCAAAUGAAAGAAAGGAAUUGUAUUUACCUUUUAUAAUUAUUAUUAGUGUGGGUAUGGCUAAUGAGUUC: 0.784
UGGGCCAGAGCCUCUCCUUGCCCUUGCUCCAUCCCGACGGUCACCGUUGGGUCCACGCCUCCACCGCCCCAUCUUGCCCCAAACGGAAAGCGCUGUAUCUGCAGUGGCAG: 0.388

Excerpt of the above (set 3):
I172E: -1.66%
V145W: -6.53%
F56V: -1.89%
V40D: -1.92%
G107M: -0.158%
